Published values gathered from unrelated publications.
Protocols differ between the studies behind these lines. Values joined by “and” are separate records of one study, mostly repeats; a detail may differ.

Compound | assay | test system | setting | how to read | quantity | value
O=C(NOC[C@H](O)CO)c1ccc(F)c(F)c1Nc1ccc(I)cc1F |  | mouse HCT-116 KRAS G13D xenograft | oral, once daily |  | ED50 | 0.8 mg/kg
O=C(O)c1ccc(-n2cc(CNc3ccc(Cl)c(C(F)(F)F)c3)c(-c3cccc(F)c3)n2)cc1 |  | Caenorhabditis elegans, S. aureus infected | 2 µg/mL, 5 days |  | survival | ~70%
COc1ccc(-c2cncc(N[C@@H](C)c3cccc(NC(=O)c4cncc(C)c4)c3)n2)cc1OC | item: rno-miR-224-5p | rat SU5416/hypoxia model, lung | dose not given, unit not given | relative to: SU5416/hypoxia vehicle | delta delta Ct | 0.506
CCN(Cc1nc2c(N)nc3cc(-c4cc[nH]n4)ccc3c2[nH]1)C(C)=O | Luminex, item: G-CSF | cancer patients, serum | 1200 µg monotherapy, first 24 h | relative to: baseline | fold change | 4.8
C[C@@H](NC(=O)N1C(=O)[C@H](Cc2ccnc(N)c2)[C@H]1C(=O)O)C1CCCCC1 |  | human | iv infusion, 1.5 mg/kg/h, 24 h |  | ACT AUEC | 16000 h·s
C=CCn1c(=O)c2cnc(Nc3ccc(N4CCN(C)CC4)cc3)nc2n1-c1cccc(C(C)(C)O)n1 | RECIST | HNSCC patients | dose not given, single agent first week, then cisplatin/docetaxel |  | progressive disease | 21%
O=C(O)CNC(=O)Cc1ccccc1 |  | ventricular cardiomyocytes, C57BL/6 mouse | dose not given, 0.852 s |  | sarcomere length | 1.62 µm
OC(CCN1CCCCC1)(c1ccccc1)C1CC2C=CC1C2 (stereo not drawn) | resting-state EEG | healthy elderly humans | oral, 4 mg, eyes open, LS mean |  | EEG Alpha1-power Fz-Cz | 2.1 µV²
CCCCCCCCCCCCCCCC(=O)NCCO | mechanical withdrawal threshold | mouse, paclitaxel neuropathic pain | oral |  | ED50 | 40.9 mg/kg
O=C(COc1ccc(Cl)cc1)NC12CC(c3nnc([C@H]4C[C@@H](OC(F)(F)F)C4)o3)(C1)C2 |  | healthy human, PBMC | oral, 45 mg single dose, day 1, 4 h post-dose, median, with: sodium arsenite ex vivo | relative to: baseline | ATF4 protein change | -38.2%
N#Cc1ccc2c(c1)[C@H]1CCCN(C(=O)c3ccc4[nH]cnc4c3)[C@H]1C2 |  | human clinical trial | oral, 240 mg once daily, 28 d |  | systolic blood pressure change | -2.7 mmHg
C[C@H]1C[C@H]2CSC(N)=N[C@@]2(c2nc(NC(=O)c3ccc(OC(F)F)cn3)cs2)CO1 | item: Aβx-40 | healthy adults, plasma | 3 mg single dose, 8 h post-dose | relative to: placebo | percent change from baseline | -39.8%
CCO |  | supine | median |  | time to maximum SBP change | 1.97 h
N#Cc1ccc2c(-c3ccncc3)c(-c3ccc(F)cc3)nn2c1 | kinase binding, competitor, MIB/MS competition, item: HST7 | Candida albicans cell lysate | 100 nM | relative to: DMSO | log2 fold change | -0.0412
CC(C)[C@H](NC(=O)[C@H](Cc1ccc(O)cc1)NC(=O)[C@H](Cc1ccc(O)cc1)NC(=O)[C@@H]1CCCN1C(=O)[C@H](CCC(=O)O)NC(=O)[C@H](CCC(=O)O)NC(=O)[C@H](Cc1c[nH]c2ccccc12)NC(=O)[C@@H]1CCCN1C(=O)[C@@H](NC(=O)[C@H](CCC(N)=O)NC(=O)c1ccc2c(c1)C(=O)OC21c2ccc(O)cc2Oc2cc(O)ccc21)C(C)C)C(=O)N[C@H](C(=O)N[C@@H](CCCCN)C(=O)N[C@@H](CCCCN)C(=O)N[C@@H](CO)C(=O)N[C@@H](CO)C(=O)NCC(=O)NCC(N)=O)C(C)C | nerve penetration depth | human head and neck surgery, nerves | 500 mg, very much improved | relative to: white light | share of responses | 0%
CC(C)(C)c1sc2ncnc(Oc3c(F)cccc3OC(F)(F)F)c2c1-c1ccc(Cl)cc1 |  | naive humanized MrgprX1 mice | oral, 16 mg/kg | relative to: predrug baseline | thermal paw withdrawal latency | increased
COC(=O)c1c(C)[nH]c(C)c1C(=O)c1ccccc1Cc1ccccc1 | high-content microscopy | DRG neurons, rat | dose not given, unit not given, with: DAMGO 0.01 | relative to: no DAMGO | serotonin-induced response | 0.852 and 1.06 and 0.802 and 1.01
CO[C@H]1CC[C@H](N2C(=O)CNc3ncc(-c4ccc(C(C)(C)O)nc4)nc32)CC1 | flow cytometry | stimulated B cells, human, blood | 60 mg single dose, 24 h, mean | relative to: baseline | pS6RP change from baseline | 14.3%

A few entries again:
Compound | assay | test system | setting | how to read | quantity | value
CCCCCCCCCCCCCCCC(=O)NCCO | mechanical withdrawal threshold | mouse, paclitaxel neuropathic pain | oral |  | ED50 | 40.9 mg/kg
O=C(COc1ccc(Cl)cc1)NC12CC(c3nnc([C@H]4C[C@@H](OC(F)(F)F)C4)o3)(C1)C2 |  | healthy human, PBMC | oral, 45 mg single dose, day 1, 4 h post-dose, median, with: sodium arsenite ex vivo | relative to: baseline | ATF4 protein change | -38.2%
N#Cc1ccc2c(c1)[C@H]1CCCN(C(=O)c3ccc4[nH]cnc4c3)[C@H]1C2 |  | human clinical trial | oral, 240 mg once daily, 28 d |  | systolic blood pressure change | -2.7 mmHg
